Assay results of several laboratories.
A part holds a random share of what one study measured.
Sequence of UniProt P29376 (whole entry, looked up): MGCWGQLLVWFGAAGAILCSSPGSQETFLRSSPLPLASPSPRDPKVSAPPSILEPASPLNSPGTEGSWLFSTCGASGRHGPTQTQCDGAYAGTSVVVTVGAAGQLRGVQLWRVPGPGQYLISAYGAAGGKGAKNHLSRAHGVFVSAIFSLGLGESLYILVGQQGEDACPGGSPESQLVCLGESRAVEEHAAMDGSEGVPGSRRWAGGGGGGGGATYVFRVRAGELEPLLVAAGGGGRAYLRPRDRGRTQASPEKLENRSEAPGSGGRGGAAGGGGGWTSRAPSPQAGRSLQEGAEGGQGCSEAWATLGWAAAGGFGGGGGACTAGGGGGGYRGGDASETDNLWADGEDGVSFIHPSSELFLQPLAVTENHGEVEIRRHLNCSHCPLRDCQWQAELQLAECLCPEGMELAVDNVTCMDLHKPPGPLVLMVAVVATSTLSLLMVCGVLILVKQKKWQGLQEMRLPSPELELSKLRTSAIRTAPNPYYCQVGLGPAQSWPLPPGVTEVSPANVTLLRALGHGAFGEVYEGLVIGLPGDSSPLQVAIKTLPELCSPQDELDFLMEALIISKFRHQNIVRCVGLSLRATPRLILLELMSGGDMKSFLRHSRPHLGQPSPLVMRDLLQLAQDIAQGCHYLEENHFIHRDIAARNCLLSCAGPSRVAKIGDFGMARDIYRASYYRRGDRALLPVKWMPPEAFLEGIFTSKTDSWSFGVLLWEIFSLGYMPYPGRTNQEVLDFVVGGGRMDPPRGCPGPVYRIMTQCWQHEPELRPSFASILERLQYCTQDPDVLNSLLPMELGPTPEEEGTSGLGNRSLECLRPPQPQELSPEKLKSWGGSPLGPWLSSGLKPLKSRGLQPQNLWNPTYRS
Sequence of UniProt P9WI81 (whole entry, looked up): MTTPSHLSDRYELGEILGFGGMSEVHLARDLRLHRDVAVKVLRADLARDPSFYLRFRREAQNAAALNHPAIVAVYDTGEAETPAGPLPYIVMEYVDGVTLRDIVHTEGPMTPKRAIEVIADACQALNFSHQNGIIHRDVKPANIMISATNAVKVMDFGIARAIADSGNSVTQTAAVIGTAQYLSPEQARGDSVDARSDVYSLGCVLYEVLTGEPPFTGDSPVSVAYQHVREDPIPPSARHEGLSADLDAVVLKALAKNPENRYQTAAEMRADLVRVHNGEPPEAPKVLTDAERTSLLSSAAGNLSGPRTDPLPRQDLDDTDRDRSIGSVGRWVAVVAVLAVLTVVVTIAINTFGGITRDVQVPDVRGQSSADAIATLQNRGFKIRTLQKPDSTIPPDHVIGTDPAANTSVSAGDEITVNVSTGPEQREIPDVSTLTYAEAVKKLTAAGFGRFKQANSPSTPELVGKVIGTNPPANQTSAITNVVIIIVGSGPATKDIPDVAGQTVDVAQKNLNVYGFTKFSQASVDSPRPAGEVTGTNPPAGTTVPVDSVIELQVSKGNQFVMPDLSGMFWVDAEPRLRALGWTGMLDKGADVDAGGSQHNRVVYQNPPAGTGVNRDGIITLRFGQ
Sequence of UniProt Q9BYT3 (whole entry, looked up): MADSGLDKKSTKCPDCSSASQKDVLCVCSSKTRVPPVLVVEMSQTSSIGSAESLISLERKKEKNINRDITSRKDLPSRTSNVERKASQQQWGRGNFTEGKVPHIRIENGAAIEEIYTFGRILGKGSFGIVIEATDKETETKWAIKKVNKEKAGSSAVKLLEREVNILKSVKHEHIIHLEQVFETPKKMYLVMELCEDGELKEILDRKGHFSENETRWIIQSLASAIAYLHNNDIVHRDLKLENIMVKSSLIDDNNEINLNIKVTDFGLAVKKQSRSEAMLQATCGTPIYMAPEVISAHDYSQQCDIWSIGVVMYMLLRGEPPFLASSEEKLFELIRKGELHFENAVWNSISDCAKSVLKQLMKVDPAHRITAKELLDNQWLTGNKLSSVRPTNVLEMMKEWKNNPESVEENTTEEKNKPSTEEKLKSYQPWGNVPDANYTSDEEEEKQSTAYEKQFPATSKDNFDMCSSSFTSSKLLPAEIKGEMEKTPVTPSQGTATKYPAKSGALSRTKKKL
Sequence of UniProt P61075 (whole entry, looked up): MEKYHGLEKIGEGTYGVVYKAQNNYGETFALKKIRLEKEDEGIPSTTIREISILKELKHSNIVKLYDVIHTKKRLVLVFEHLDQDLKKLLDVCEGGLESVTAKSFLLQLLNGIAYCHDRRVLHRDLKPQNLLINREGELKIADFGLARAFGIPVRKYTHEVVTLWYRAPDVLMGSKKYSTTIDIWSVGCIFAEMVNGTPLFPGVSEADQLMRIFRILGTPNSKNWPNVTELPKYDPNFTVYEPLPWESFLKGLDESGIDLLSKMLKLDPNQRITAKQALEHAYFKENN
Sequence of UniProt Q388M1 (whole entry, looked up): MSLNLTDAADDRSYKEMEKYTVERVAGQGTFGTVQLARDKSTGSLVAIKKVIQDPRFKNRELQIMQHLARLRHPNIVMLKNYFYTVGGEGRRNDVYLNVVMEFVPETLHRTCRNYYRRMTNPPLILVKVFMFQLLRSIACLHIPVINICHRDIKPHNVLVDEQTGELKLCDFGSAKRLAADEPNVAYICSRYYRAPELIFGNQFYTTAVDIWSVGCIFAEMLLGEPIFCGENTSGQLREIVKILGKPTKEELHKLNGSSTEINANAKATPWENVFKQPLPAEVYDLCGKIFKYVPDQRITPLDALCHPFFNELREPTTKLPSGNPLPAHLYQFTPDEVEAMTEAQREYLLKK

Sample 1 — effect on: enzyme activity; action: inhibitor; technique: radiometric; concentration: 0.5 µM
Structure (SMILES): Cc1nc(Nc2ncc(C(=O)Nc3c(C)cccc3Cl)s2)cc(N2CCN(CCO)CC2)n1
target | activity vs control
STK33 (Homo sapiens, UniProt Q9BYT3) | 88.7%
DYRK1B (Homo sapiens, UniProt Q9Y463) | 98.4%
LTK (Homo sapiens, UniProt P29376) | 97.7%

Mixed results
SMILES | target or system | assay | test system | conditions | how to read | quantity | value
CC(=O)NC1CCSC1=O (racemic) | mouse MPNST tumor cells | high-content nuclear imaging, measured: cell number |  | 10 µM, 12 h, mean of 2 replicates | relative to: plate mean, higher = more cells | nuclei count | 3.51 z-score
CC(=O)C1=C(C)N(c2cccc(C(F)(F)F)c2)C(=O)N[C@@H]1c1ccc(C#N)nc1 | CRK2 (Plasmodium falciparum, UniProt P61075) | cell-free assay, competition with immobilised ligand |  | 1 µM |  | remaining binding | 100%
CC(C)(C)c1cnc(CSc2cnc(NC(=O)C3CCNCC3)s2)o1 | GSK3 (Trypanosoma brucei, UniProt Q388M1) | binding, kinobead competition | Trypanosoma brucei lysate |  |  | IC50 | > 10 µM
CCC(=N\O)/C(C)=C/c1ccc(F)cc1 | pknB (Mycobacterium tuberculosis, UniProt P9WI81) | cell-free assay, competition with immobilised ligand |  | 1 µM |  | remaining binding | 100%
COc1ccc(OC)c(C(O)C(C)N)c1 (centres unmarked) | mouse MPNST tumor cells | high-content nuclear imaging, measured: cell number |  | 10 µM, 12 h, mean of 2 replicates | relative to: plate mean, higher = more cells | nuclei count | 0.829 z-score

For quick reference, copied from above (sample 1):
target | activity vs control
DYRK1B (Homo sapiens, UniProt Q9Y463) | 98.4%
